# Measured values from different studies.
# Protocols differ between the studies behind these lines. Numbers after ± are the reported error.
# Oprd1: Delta-type opioid receptor (Oprd1, Rattus norvegicus, UniProt P33533)
# Aminopeptidase N: Aminopeptidase N (Neisseria meningitidis, UniProt Q9JYV4)
SMILES,target,assay,test system,conditions,how to read,quantity,result
C=C(F)C(=O)N1CCN(c2nc(OC[C@@H]3CCCN3CCCOCCC(=O)N[C@H](C(=O)N3C[C@@H](O)C[C@H]3C(=O)NCc3ccc(-c4scnc4C)cc3)C(C)(C)C)nc3c2CCN(c2cccc4cccc(Cl)c24)C3)C[C@@H]1CC#N,"GTPase KRas (KRAS, Homo sapiens, UniProt P01116, G12C)",immunoblot band shift,NCI-H2030,2.5 µM,,time to target engagement,≤ 1 h
CC(=O)N[C@@H](Cc1c[nH]c2ccccc12)C(=O)N[C@@H](CCC(=O)O)C(=O)N[C@@H](Cc1c[nH]cn1)C(=O)N[C@@H](CC(=O)O)C(=O)Nc1ccc2c(C)cc(=O)oc2c1,"Caspase-5 (CASP5, Homo sapiens, UniProt P51878)","substrate cleavage, substrate, fluorogenic AMC release",,enzyme 0.25 activity units/µL,,Vmax,1370 ± 49.4 RFU/min
CC(C)CN(Cc1ccc(F)cc1)c1nc(C#N)nc(N2CCOCC2)n1,"CPL (Toxoplasma gondii, UniProt Q6DMN0)","enzyme activity, inhibitor",,,relative to: human over Toxoplasma IC50,selectivity ratio,0.03
CCN(Cc1ccccc1)C(=O)CCc1nc(CN2CCN(C(=O)Cc3ccc(OC)c(OC)c3)CC2)no1,"Potassium voltage-gated channel subfamily KQT member 4 (KCNQ4, Homo sapiens, UniProt P56696)","potassium current, whole-cell patch clamp","CHO, stable",10 µM,,activation V1/2,-31.1 mV
Cc1cc(O)cc(C)c1CC(N)C(=O)NC1CCNc2c(Cc3ccccc3)cccc21 (centres unmarked),Oprd1,agonist,C6 cell membranes,10 µM,relative to: DPDPE,maximal stimulation,inactive
Cn1cc(-c2cccc(CN3CCC4(CC3)COc3c4ccc4c3CN(C3CCC(=O)NC3=O)C4=O)c2)cn1 (centres unmarked),"CRBN/Zinc finger protein Helios (Homo sapiens, UniProt Q96SW2+Q9UKS7)","Helios degradation, degrader, HiBiT",HEK293,6 h,,Dmax,89%
CC(C)P(=S)(NP(=[Se])(C(C)C)C(C)C)C(C)C,"Alpha-amylase (Bacillus subtilis, UniProt P00691)","binding, Van't Hoff analysis",,"pH 6.8, 298–310 K",,ΔH,-19 kcal/mol
CC(=O)N[C@H]1C(O)O[C@H](CO)[C@@H](O[C@@H]2O[C@H](CO)[C@H](O)[C@H](O)[C@H]2O)[C@@H]1O (some centres unmarked),"Galectin-3 (LGALS3, Homo sapiens, UniProt P17931)","binding, isothermal titration calorimetry",,,,–TΔS,7.6 kcal/mol
Cn1ccc(-c2ccc(Cn3cc(C(=O)N[C@H]4CCCC[C@@H]4O)c4c(F)cc(F)cc43)cn2)n1,"Muscarinic acetylcholine receptor M1 (Chrm1, Rattus norvegicus, UniProt P08482)","calcium mobilization, positive allosteric modulator",CHO cells,together with: EC20 acetylcholine,relative to: ACh maximum,maximum response,92 ± 4%
OC[C@@H]1[C@@H](O)[C@H](O)[C@@H](O)[C@@H]2N[C@H]12,"Lysosomal acid glucosylceramidase (GBA1, Homo sapiens, UniProt P04062, R534H)","enzyme activity, inhibitor",,pH 5.2,,kinact/KI,317 M⁻¹ s⁻¹
CC[C@H](C)[C@H](NC(=O)[C@@H]1CCCN1C(=O)[C@H](Cc1c[nH]cn1)NC(=O)[C@@H](NC(=O)[C@H](Cc1ccc(O)cc1)NC(=O)[C@@H](NC(=O)[C@H](CCCNC(=N)N)NC(=O)CNC)C(C)C)[C@@H](C)CC)C(=O)O,"Type-1 angiotensin II receptor (AGTR1, Homo sapiens, UniProt P30556)","IP1 accumulation, agonist",Expi293F cells,"1 h, 37 °C",,Emax,52 ± 3%
CC(=O)NCC(=O)N[C@@H](CCCNC(=N)N)C(=O)N[C@@H](CCCCNP(=O)(O)O)C(=O)NCC(=O)NCC(N)=O,"Phospholysine phosphohistidine inorganic pyrophosphate phosphatase (LHPP, Homo sapiens, UniProt Q9H008)",enzyme activity,,"concentration not given, 90 min, pH 7.8, together with: substrate 100 µM",,substrate hydrolysis,40.7%
Nc1nc2c([C@@H]3O[C@@H]4COP(=O)(O)O[C@H]5[C@@H](O)[C@H](n6cnc7c(=O)[nH]c(N)nc76)O[C@@H]5COP(=O)(O)O[C@H]4[C@H]3O)scc2c(=O)[nH]1,"Cyclic di-GMP phosphodiesterase RocR (rocR, Pseudomonas aeruginosa, UniProt Q9HX69)","substrate, HPLC",,"10 µM, together with: 100 nM enzyme",,dissociation rate constant k-1,0.033 ± 0.001 s⁻¹
Cc1cc(O)cc(C)c1C[C@H](N)C(=O)N1Cc2ccccc2C[C@H]1CN[C@@H](Cc1ccccc1)C(=O)N[C@@H](Cc1ccccc1)C(N)=O,Oprd1,"adenylyl cyclase activity, agonist",C6 cells expressing Oprd1,"concentration not given, together with: forskolin",relative to: forskolin control,remaining activity,65 ± 10%
CCCCCCCCCCCCCCCCSCc1cc2cc(c1)CSC[C@H](N)C(=O)NCCCCCC(=O)N[C@@H](Cc1ccccc1)C(=O)N[C@@H](CC(C)C)C(=O)N[C@@H](Cc1ccccc1)C(=O)N[C@@H](CCCNC(=N)N)C(=O)N1[C@@H](C[C@@H]3CCCC[C@@H]31)C(=O)N[C@@H](CCCNC(=N)N)C(=O)N[C@@H](CC(N)=O)C(=O)NCCCCCC(=O)N[C@H](C(N)=O)CSC2,"Neuromedin-U receptor 1 (NMUR1, Homo sapiens, UniProt Q9HB89)","calcium signalling, agonist",HEK293 expressing receptor,10 µM,relative to: human NmU,Emax,96.4 ± 7.7%
O=C(O)CCCC(=O)O,"Cholinesterase (BCHE, Homo sapiens, UniProt P06276)","enzyme activity, inhibitor, Ellman",,250 µg/mL,,inhibition,60.8%
CC(=O)N[C@H]1[C@@H](O[C@H](C)[C@H](NC(=O)[C@H](CO)NC(=O)CNC(=O)[C@@H]2CCCN2C(=O)[C@H](C)NC(=O)[C@@H]2CCCN2C(=O)[C@@H](N)CCCNC(=N)N)C(=O)N[C@@H](C)C(=O)N2CCC[C@H]2C(=O)N2CCC[C@H]2C(=O)N[C@@H](C)C(=O)N[C@@H](Cc2c[nH]cn2)C(=O)NCC(=O)O)O[C@H](CO)[C@H](O)[C@@H]1O,"anti-MUC1 Fab 16 A wild type, murine",SPR,,,relative to: peptide KD over Glyco-T KD,KD ratio,30.6 fold
CC[C@H](C)[C@H](NC(=O)[C@H](Cc1c[nH]cn1)NC(=O)[C@H](CCCCNC(=O)[C@@H](NC(=O)[C@H](CCCCN)NC(=O)CSC[C@H](NC(=O)[C@H](Cc1ccccc1)NC(=O)[C@H](CCCCNC(=O)[C@H](CC(C)C)NC(=O)[C@@H]1CCCN1C(=O)[C@H](CCCCN)NC(=O)C[C@@H]1O[C@@H](C)[C@@H](O)[C@@H](O)[C@@H]1O)NC(=O)[C@H](CC(C)C)NC(=O)[C@@H]1CCCN1C(=O)[C@H](CCCCN)NC(=O)c1ccc(O[C@@H]2O[C@H](CO)[C@H](O)[C@H](O)[C@H]2O)cc1)C(N)=O)[C@@H](C)CC)NC(=O)[C@@H](NC(=O)[C@H](CCCCN)NC(=O)CSC[C@H](NC(=O)[C@H](Cc1ccccc1)NC(=O)[C@H](CCCCNC(=O)[C@H](CC(C)C)NC(=O)[C@@H]1CCCN1C(=O)[C@H](CCCCN)NC(=O)C[C@@H]1O[C@@H](C)[C@@H](O)[C@@H](O)[C@@H]1O)NC(=O)[C@H](CC(C)C)NC(=O)[C@@H]1CCCN1C(=O)[C@H](CCCCN)NC(=O)c1ccc(O[C@@H]2O[C@H](CO)[C@H](O)[C@H](O)[C@H]2O)cc1)C(N)=O)[C@@H](C)CC)C(N)=O,"Fucose-binding lectin PA-IIL (lecB, Pseudomonas aeruginosa, UniProt Q9HYN5)","binding, isothermal titration calorimetry",,divided by fucoside copies,relative to: monovalent fucoside KD over ligand KD,relative potency per fucoside,1.3
NC(=O)Cc1cc(=O)oc2cc(NC(=O)[C@@H](N)CCOCc3ccccc3)ccc12,Aminopeptidase N,"enzyme activity, substrate",,"pH 7.5, 37 °C",,Km,147 ± 7.9 µM
COc1cc(COc2ccc3c(c2)CN(C(=O)[C@H](CCC(=O)O)NC(=O)[C@H](CC(=O)O)NC(=O)[C@H](CC(=O)O)NC(=O)[C@H](CCC(=O)O)NC(=O)[C@@H](CCCNC(=N)N)NC(=O)[C@@H](CCCNC(=N)N)NC(=O)[C@@H](CCCNC(=N)N)NC(=O)[C@H](C)N(C)C(=O)[C@H](Cc2ccccc2)NC(=O)[C@@H](NC(=O)[C@H](Cc2ccccc2)NC(=O)[C@H](C)NC(=O)[C@H](CCCNC(=N)N)N(C)C(=O)[C@@H]2CCCN2C(=O)[C@H](CCCNC(=N)N)NC(=O)CNC(=O)c2ccc4c(c2)C2(OC4=O)c4ccc(O)cc4Oc4cc(O)ccc42)[C@@H](C)OCc2cc(OC)c(OC)cc2[N+](=O)[O-])[C@H](C(=O)N[C@@H](CCC(=O)O)C(=O)N[C@@H](CCC(=O)O)C(=O)N[C@H](C(N)=O)C(C)C)C3)c([N+](=O)[O-])cc1OC,"RAC-alpha serine/threonine-protein kinase (AKT1, Homo sapiens, UniProt P31749)","reporter phosphorylation, substrate",,"concentration not given, 60 min, after photoactivation",,phosphorylation,87.1 ± 1.8%
CC[C@H](C)[C@@H]1NC(=O)C(NC(=O)[C@H](C)NC(=O)[C@H](CCC(=O)O)NC(C)=O)CCCC=CCCCC(C(=O)N[C@@H](CCC(N)=O)C(=O)N[C@@H](CCC(N)=O)C(=O)N[C@@H](CC(C)C)C(=O)N[C@@H](CC(C)C)C(=O)N[C@@H](Cc2ccccc2)C(=O)N[C@H](C(=O)N[C@@H](Cc2c[nH]cn2)C(=O)N[C@@H](Cc2ccccc2)C(=O)N[C@@H](CCCNC(=N)N)C(=O)N[C@H](C(=O)NCC(N)=O)[C@@H](C)CC)[C@@H](C)CC)NC(=O)[C@H]([C@@H](C)CC)NC(=O)[C@H](CCCNC(=N)N)NC1=O (some centres unmarked),HIV-1 integrase and DNA substrate,"DNA binding, gel retardation",,"2 h, 37 °C, together with: radiolabelled oligonucleotide DNA",,minimum DNA retardation concentration,37 µM
CC(C)C[C@H](N)C(=O)Nc1ccc2c(CC(N)=O)cc(=O)oc2c1,Aminopeptidase N,"enzyme activity, substrate",,"3 µM, pH 7.5, 37 °C",relative to: L-hArg-ACC,relative hydrolysis rate,< 20%
O=C(O)COc1ccc(Cl)cc1,"Chloride channel protein (Torpedo marmorata, UniProt P21564, C212S)","binding to closed state, kinetic model fit",,20 mM,,on-rate constant,29500 M⁻¹ s⁻¹

# For quick reference, copied from above:
SMILES,target,assay,test system,conditions,how to read,quantity,result
C=C(F)C(=O)N1CCN(c2nc(OC[C@@H]3CCCN3CCCOCCC(=O)N[C@H](C(=O)N3C[C@@H](O)C[C@H]3C(=O)NCc3ccc(-c4scnc4C)cc3)C(C)(C)C)nc3c2CCN(c2cccc4cccc(Cl)c24)C3)C[C@@H]1CC#N,"GTPase KRas (KRAS, Homo sapiens, UniProt P01116, G12C)",immunoblot band shift,NCI-H2030,2.5 µM,,time to target engagement,≤ 1 h
CCN(Cc1ccccc1)C(=O)CCc1nc(CN2CCN(C(=O)Cc3ccc(OC)c(OC)c3)CC2)no1,"Potassium voltage-gated channel subfamily KQT member 4 (KCNQ4, Homo sapiens, UniProt P56696)","potassium current, whole-cell patch clamp","CHO, stable",10 µM,,activation V1/2,-31.1 mV
